Measurements from different studies.
Lines come from different studies, so protocols differ.
Cell line: HT-29

`COc1ccc2c(c1)c(CC(=O)O)c(C)n2C(=O)c1ccc(Cl)cc1` has an IC50 of 136 µM (cell growth or viability, thymidine uptake; 72 h).
`C=C(CC[C@@H](CO)[C@H]1CC[C@@]2(C)[C@@H]3CC[C@H]4[C@H](C)[C@@H](O)CC[C@@]45C[C@@]35CC[C@]12C)C(C)C` has an IC50 of greater than 10 µM (cell growth or viability).
For `CC(=O)O[C@H]1C(=O)[C@@]2(C)[C@H]([C@H](OC(=O)c3ccccc3)[C@]3(O)C[C@H](OC(=O)[C@H](O)[C@@H](NC(=O)c4ccccc4)c4ccccc4)C(C)=C1C3(C)C)[C@]1(OC(C)=O)CO[C@@H]1C[C@@H]2O`, the IC50 was 0.001 µM (cytotoxicity).
For `C[C@H]1[C@H](C)CC[C@]2(C(=O)O)CC[C@]3(C)C(=CC[C@@H]4[C@@]5(C)CC[C@H](O)C(C)(C)[C@@H]5CC[C@]43C)[C@H]12`, the IC50 was greater than 10 µM (cell growth or viability; 72 h).
`COc1ccc(/C=C/C(=O)CC2(O)C(=O)Nc3cc(Br)ccc32)cc1` (centres unmarked) has an IC50 of 25.3 µM (cell growth or viability, MTT; 24 h).
The IC50 of `CSc1ccc(/C=C2/C(C)=C(CC(=O)O)c3cc(F)ccc32)cc1` is reported as 33.9 µM (cell growth or viability, thymidine uptake).
`CS(=O)(=O)c1ccc(C2=C(c3ccccc3)C(=O)OC2)cc1` has an IC50 of greater than 500 µM (cell growth or viability, thymidine uptake; 72 h).
The IC50 of `Cc1cnc(NC2CCOCC2)nc1-n1cnc(C(=O)NC(CN)c2cc(F)cc(Cl)c2)c1` (centres unmarked) is reported as 0.007 µM (RSK1 Ser380 phosphorylation, ELISA).
With `CC(C)=CCC/C(C)=C/CC/C(C)=C/CC/C=C(\C)CC/C=C(\C)CCC=C(C)C` the IC50 was 8.2 µg/mL (cell growth or viability, resazurin; 96 h).
The IC50 of `COc1cc2oc3c(C)c(OC)c(CC=C(C)C)c(O)c3c(=O)c2c(CC=C(C)C)c1OC` is reported as greater than 20 µM (cytotoxicity, sulforhodamine B; 72 h).
`CC(C)[C@H]1CC[C@]2(C)C(=O)CCC(C=O)=C[C@H]12` gave an IC50 of greater than 20 µM (cytotoxicity).
With `CC1(C)CC[C@]2(C(=O)O)CC[C@]3(C)C(=CC[C@@H]4[C@@]5(C)CC[C@H](O)C(C)(C)[C@@H]5CC[C@]43C)[C@@H]2C1` the IC50 was 0.89 µg/mL (cell growth or viability, resazurin; 96 h).
`COc1cc2oc3cc(OC)c(OC)c(CC=C(C)C)c3c(=O)c2c(O)c1CC=C(C)C` has an IC50 of 0.9 µM (cell growth or viability, fluorescence; 2 h).
For `CC1=CC(=O)CC(C)(C)[C@H]1CC[C@H](O)CO`, the IC50 was greater than 10 µM (cell growth or viability).

Some of these lines once more:
`COc1cc2oc3cc(OC)c(OC)c(CC=C(C)C)c3c(=O)c2c(O)c1CC=C(C)C` has an IC50 of 0.9 µM (cell growth or viability, fluorescence; 2 h).
